Published values from different studies.
Parts stem from different laboratories: compare values within a part only.

Study 1 — technique: protein-binding microarray; molecule type: double-stranded DNA, one strand shown; matrix: in vitro; tested at: 940 nM top; setting: 60-bp whole probe; together with: salmon DNA 0.4 mg/ml; baseline: random background probes; direction: higher = stronger binding; measurement: fitted relative affinity; all sequences stand within: GCCTAGCAC … GTCTTGATTCGCTTGACGCTGCTG
Target: Interferon regulatory factor 5, full length, phosphomimetic (IRF5, Homo sapiens, UniProt Q13568-2, residues 1-514, S451D/S453D/S456D/S462D)
GACCATATCGGGACTGGAGACGTGCTA: -0.441 z-score
GACGGTATCGGTCTAGGGACGTGCTAG: 8.59 z-score
TCATATACACTTATGACACTGTGCTAG: 0.139 z-score
GTAGGTCTCGGTCTCGGTTAGTGCTAG: 5.04 z-score
TCATTTTTTTTCATCATACTGTGCTAG: 1.59 z-score
GACGGTATCGTTATCCTGACGTGCTAG: 4.71 z-score
TCATAGCTTCCTTTCGCACTGTGCTAG: 0.679 z-score
TCACCTCCCCCTCTGCCACTGTGCTAG: 0.266 z-score

Study 2 — observed: enzyme activity; action: inhibitor; tested at: 20 µM; measurement: inhibition
Target: Replicase polyprotein 1ab, polymerase (rep, Severe acute respiratory syndrome coronavirus 2, UniProt P0DTD1)
O=C(O)c1cc(O)c2c(c1)[C@H]([C@H]1c3cc(C(=O)O)cc(O)c3C(=O)c3c(O[C@@H]4O[C@H](CO)[C@@H](O)[C@H](O)[C@H]4O)cccc31)c1cccc(O[C@@H]3O[C@H](CO)[C@@H](O)[C@H](O)[C@H]3O)c1C2=O: 99.7%
O=C(O)C(O)c1ccccc1 (stereo not drawn): 0.26%
CC(C)(O)c1coc(S(=O)(=O)NC(=O)Nc2c3c(cc4c2CCC4)CCC3)c1: 4.88%
CCc1c(-c2ccccc2)c(-c2ccccc2)nn1-c1ccccc1-c1cccc(OCC(=O)O)c1: -0.83%
CCCCCCCCCCCCCCOc1ccc(C(=O)O)o1: -3.5%
COc1cccc(-c2cc(NCc3ccc4c(c3)OCO4)nc(N)n2)c1: -3.15%
c1ccc2c(c1)CCCc1cc(NCCN3CCOCC3)nnc1-2: -0.61%
Cc1c(O)c(=O)ccn1C: 1.26%
O=C(NC1CCC1)c1ccc(C#Cc2cccc(F)c2)nc1: 1.67%
COc1ccc(CN(CCN(C)C)c2ncccn2)cc1: -4.98%
CCCCCOC(=O)Nc1nc(=O)n([C@@H]2O[C@H](C)[C@@H](O)[C@H]2O)cc1F: -6.55%
COC(=O)/C=C/C(=O)N[C@@H]1CC[C@@]2(O)[C@H]3Cc4ccc(O)c5c4[C@@]2(CCN3CC2CC2)[C@H]1O5: -5.18%
COc1ccc(-c2noc(CC(=O)O)c2-c2ccc(OC)cc2)cc1: 5.01%
Cc1oc(-c2ccccc2)nc1CCC(=O)c1ccc(CC2SC(=O)NC2=O)cc1 (stereo not drawn): 5.37%
COc1cc2nc(N3CCN(C(=O)C4CCCO4)CC3)nc(N)c2cc1OC (stereo not drawn): 1.35%
NCC(O)c1ccc(O)cc1 (stereo not drawn): -6.69%
CCCCC(F)(F)[C@@]1(O)CC[C@H]2[C@@H](CC(=O)[C@@H]2CCCCCCC(=O)O)O1: -7.78%
CS(=O)(=O)OC[C@H](O)[C@@H](O)COS(C)(=O)=O: -1.75%
CON: 2.21%
Fc1ccc(-c2nc(-c3c(F)cccc3F)[nH]c2-c2ccncc2)cc1: 7.79%
Cc1nccn1CC1CCc2c(c3ccccc3n2C)C1=O (stereo not drawn): 24.8%
O=C(Nc1ccc(-c2ccncc2)cc1)N[C@H](CO)c1ccccc1: -3.84%
CCC(=C(CC)c1ccc(OP(=O)(O)O)cc1)c1ccc(OP(=O)(O)O)cc1: 4.66%
CC(=O)N1CC[N+](C)(C)CC1: -12.4%
CCO[C@@H]1OC(=O)C[C@@H]1NC(=O)[C@@H]1CCCN1C(=O)[C@@H](NC(=O)c1ccc(N)c(Cl)c1)C(C)(C)C: 0.38%

Study 3 — technique: RNA Bind-n-Seq; molecule type: RNA; matrix: in vitro; tested at: not given; baseline: input RNA pool; direction: higher = stronger binding; measurement: bound/input enrichment
Target: RING finger protein unkempt homolog, zinc fingers 1-6, GST-SBP tag (UNK, Homo sapiens, UniProt Q9C0B0, residues 30-357)
Chain of UniProt Q9C0B0 (30-357, looked up): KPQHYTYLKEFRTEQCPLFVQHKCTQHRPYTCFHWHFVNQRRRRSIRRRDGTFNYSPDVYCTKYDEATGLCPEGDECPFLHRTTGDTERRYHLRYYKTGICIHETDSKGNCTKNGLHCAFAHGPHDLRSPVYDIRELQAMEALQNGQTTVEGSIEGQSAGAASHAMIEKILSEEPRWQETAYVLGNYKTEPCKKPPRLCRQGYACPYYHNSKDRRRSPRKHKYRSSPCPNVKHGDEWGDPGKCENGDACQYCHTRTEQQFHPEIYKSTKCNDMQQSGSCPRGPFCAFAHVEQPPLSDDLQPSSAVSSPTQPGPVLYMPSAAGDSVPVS
Setting: RNA with constant flanks, human and mouse sites, ends assumed
All sequences stand within: GGGAGUUCUACAGUCCGACGAUC … CAACAGAGGAUUGAGCAUCA
GAAAAUCACCCUUAUCAAACAGCUUGCCAAAAGUGUCAUCGUGGGCUGGGAGCCCCCUGCUGUGCCUCCCGGCUGGGGCACCGUGAGCAGUUAUAAUGUGCUGGUGGACAAAGAGACACG: 0.305 ratio
CCCAACCACUCUGUGGUGAAGCUACGCAAUGCAGGCCAUGCCUGUUACCUCCACAAGCCGCAAGACUUCCACCUUGUCCUGCUUGCCUUCCUUGACCAUCUACCUUGAACUAACCCACUC: 0.334 ratio
GGAAUUCAACCUGUAAUAGAUAAAUUAAGGGAACACGAAAAUUCAACAUUAGAUAGGCAUUUAGACUUUUUUGAAAUGCUCCGAAAUGAAGAUGAACUAGAAUUUGCCAAAAGAUUUGAA: 6.58 ratio
UAGUCACUUUUUAAAUUGCUGGCAAAGCUAUAAUUAAUCCCUAGGCACAAUUGUAGUUUUUAUUUUAAUGUUUGUAUGCACAAGGCCCUUUAGGAAAUGAGAAGUUGCCAUGCCAGAUUA: 59.7 ratio
GAUGUUGGUUGACCAUAAUUUGCAACAUUGUCUCAUUAAAAAUAAACUUUCAUAUUCAUAUUUGGUAGAACUGUUAACCUAGAAAUGUAGCUUGCUAAUAAGAUAGAAUGAUACAAAAGU: 9.12 ratio
GCACUGUUUUCUGAUGAUGAUGAUGAUGAUGAAGAAGAAGAUGCAGUGAAUCUUGAACCAUUUAUUUCUGCAUUCCGUGAGGCUGAAAAAAUUGCCAAGGAACUAAAACGCAAACCUGGC: 0.203 ratio
GUGGGUGCCUCGGCUCGGCUUUCCCCGGCGCUGGCUGGGCUCAGCGGCCCCUGAGCCCAAGCGACACACGCCCCGCGGUCCCCGAUCCGGCCCCUGGGAGAGCCGCGCCGUUCUGGAACC: 0.187 ratio
UGGAAGAAGCUUUGUCAGUACCAUUUUGCUGAAAAGCAGUUUUGUAGACAUUUGAUCCUUUCAGAAAAAGGUCAUAUUGAAUGGAAGUUGAUGUACUUUGCACUUCAGAAACAUUACCCA: 0.101 ratio

Study 4 — observed: enzyme activity; action: inhibitor; tested at: 20 µM; setting: hit confirmation; measurement: inhibition
Target: Replicase polyprotein 1ab, main protease (rep, Severe acute respiratory syndrome coronavirus 2, UniProt P0DTD1)
CC/C=C(\C(=O)N[C@@H]1C(=O)N2C(C(=O)OCOC(=O)C(C)(C)C)=C(COC(N)=O)CS[C@H]12)c1csc(N)n1: 18%
CCO/N=C(/C(=O)N[C@@H]1C(=O)N2C(C(=O)O)=C(Sc3nc(-c4cc[n+](C)cc4)cs3)CS[C@H]12)c1nsc(NP(=O)(O)O)n1: 1.4%
CO[C@H]1C([C@@]2(C)O[C@@H]2CC=C(C)C)[C@]2(CC[C@H]1OC(=O)/C=C/C=C/C=C/C=C/C(=O)O)CO2 (stereo partly drawn): 37.5%
O=C1C(=Cc2cccnc2)C(=O)c2ccccc21: 75.7%
CCOC(=S)SSC(=S)OCC: 94.6%

Study 5 — cell line: HEK-293T; observed: pseudovirus infection; technique: FDA-approved drug library screen; organism: VSV pseudotyped with SARS-CoV-2 spike; tested at: 10 µM; time: 16 h; baseline: vehicle-treated; measurement: GFP-positive cells
O=C(O)CCc1nc(-c2ccccc2)c(-c2ccccc2)o1: 93%
CCC[C@H](N[C@@H](C)C(=O)N1[C@H](C(=O)O)C[C@@H]2CCCC[C@@H]21)C(=O)OCC: 74.6%
CC(O)(P(=O)(O)O)P(=O)(O)O: 112%
Nc1ccc(O)c(C(=O)O)c1: 61%
C=C1CC[C@H](O)C/C1=C/C=C1\CCC[C@]2(C)[C@@H]([C@H](C)/C=C/[C@H](C)C(C)C)CC[C@@H]12: 79.6%

For quick reference, copied from above (study 2):
COC(=O)/C=C/C(=O)N[C@@H]1CC[C@@]2(O)[C@H]3Cc4ccc(O)c5c4[C@@]2(CCN3CC2CC2)[C@H]1O5: -5.18%
COc1ccc(-c2noc(CC(=O)O)c2-c2ccc(OC)cc2)cc1: 5.01%
Cc1oc(-c2ccccc2)nc1CCC(=O)c1ccc(CC2SC(=O)NC2=O)cc1 (stereo not drawn): 5.37%
COc1cc2nc(N3CCN(C(=O)C4CCCO4)CC3)nc(N)c2cc1OC (stereo not drawn): 1.35%
